Results collected from several papers.
A part holds a random share of what one study measured.

Sample 1 — method: RNA Bind-n-Seq; molecule type: RNA; matrix: in vitro; tested at: 200 nM; notes: whole 134-nt RNA, ends assumed; added: 150 mM LiCl; reference: input library; reading: higher = stronger binding; measurement: log2 enrichment; each molecule: 7-deaza-guanosine replaces G
Target: Ras GTPase-activating protein-binding protein 1, full length (G3BP1, Homo sapiens, UniProt Q13283)
UniProt Q13283, sequence (whole entry, looked up): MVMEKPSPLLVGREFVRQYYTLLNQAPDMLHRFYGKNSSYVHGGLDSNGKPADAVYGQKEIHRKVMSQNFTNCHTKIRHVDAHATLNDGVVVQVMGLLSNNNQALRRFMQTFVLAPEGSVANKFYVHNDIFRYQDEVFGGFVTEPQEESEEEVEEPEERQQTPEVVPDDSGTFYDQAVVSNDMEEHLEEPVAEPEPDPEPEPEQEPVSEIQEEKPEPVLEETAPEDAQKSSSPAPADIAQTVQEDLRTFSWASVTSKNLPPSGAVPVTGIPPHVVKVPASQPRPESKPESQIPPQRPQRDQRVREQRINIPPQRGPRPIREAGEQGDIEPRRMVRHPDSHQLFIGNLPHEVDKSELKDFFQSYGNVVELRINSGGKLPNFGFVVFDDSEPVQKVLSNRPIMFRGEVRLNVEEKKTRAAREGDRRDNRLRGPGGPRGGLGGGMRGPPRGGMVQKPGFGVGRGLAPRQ
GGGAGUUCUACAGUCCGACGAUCUGGGAGGUGGAAUUUGUUUAUUUUUUUAGCUCAUUUCCAGGGGUGGGAAUUUUUUUUUAAUAUGUGUCAUGAAUAAAGUUGUUUUUGAAAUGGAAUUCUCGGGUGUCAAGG: 0.477
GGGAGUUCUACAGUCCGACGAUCACCAUGCAGGUGGGCAUCUUUGGGAAGUGGGGCAGGGGGGGGAUAGGGAGGGGGGUAACACUUUGGGAACAGGUGGUCCCAGGUCGUUUCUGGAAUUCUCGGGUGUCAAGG: 0.013
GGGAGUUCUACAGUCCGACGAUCUGGGAGGUGGAUUUUGUUUAUUUUUUUAGCUCAUUUCCAGGGGUGGGAAUUUUUUUUUAAUAUGUGUCAUUAAUAAAGUUGUUUUUGAAAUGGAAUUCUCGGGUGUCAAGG: -0.286
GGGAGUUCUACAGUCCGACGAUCUCCUGUGCUACACAUCGUAUGUACCGAAUCGGGAAAAAAGGGAAAAAAGGAAAAAAGGGAAAGUAUUAUGUUACGCCGUUCGGAUCUGCAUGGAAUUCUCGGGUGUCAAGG: 0.0636
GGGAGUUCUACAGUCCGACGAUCUUUGCAGGGAGUGGUACGGGUAUCACUUUCCGGAGCUGGUGAAGAUCAUCAACGACAAUGCCACAUACUGCCGUCUUGCCCAGUUUAUUGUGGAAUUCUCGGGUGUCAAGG: 0.41
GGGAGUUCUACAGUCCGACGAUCCACAGACAACACGCACCCACACAGACACAGAGGGAAGGGGUUGGGAUGGGGACAGGGUGCACAGCAGGGCGGGGUAGGACAAAAGCCCCUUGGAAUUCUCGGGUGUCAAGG: -0.787
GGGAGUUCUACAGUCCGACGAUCCCUGUGCUACACAUCGUAUGUACCGAAUCGGGUUUUUUUGGUUUUUUUGGGGUUUUUUUGGAAAGUAUUAUGUUACGCCGUUCGGAUCUGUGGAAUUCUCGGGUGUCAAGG: 1.03

Sample 2 — method: RNA Bind-n-Seq; molecule type: RNA; matrix: in vitro; tested at: 365 nM; reference: no-protein control; reading: higher = stronger binding; measurement: RBNS enrichment (R)
Target: RNA binding protein fox-1 homolog 2, RRM domain, GST-SBP tag (RBFOX2, Homo sapiens, UniProt O43251-10, residues 100-194)
Notes: natural RNA segment, single round, ends assumed
Target sequence (chain): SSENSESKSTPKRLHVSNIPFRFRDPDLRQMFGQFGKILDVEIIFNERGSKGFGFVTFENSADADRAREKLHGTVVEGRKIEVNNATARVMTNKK
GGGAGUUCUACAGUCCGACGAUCAGUGUGGUUACAGGCUGCAUUUCAGACAAUGACCAGGUUUACUUUUCAGAUCACAAAGCAAACAGUCACCAAGGAUCUGUCUUCCAACUCUUUUUUUUUUCUGCUGAAAUUGGAAUUCUCGGGUGCCAA: 0.687
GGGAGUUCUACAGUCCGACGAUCCUGCCCCUCCUCCUUCCAGCACCUGCCAGAGCUUCUCCAGGAGGCCAAGCAGAGGCUCCCCUCAUGAAGGAAGCCAUUGCACUGUGAACACUGUACCUGCCUGCUGAACAUGGAAUUCUCGGGUGCCAA: 0.791
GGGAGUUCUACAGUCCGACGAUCAAUCAACCAUUUUUCAAGGCACUCGAUCAGUGUUGCAGCAUAACAGAAAGUACAGCUACUGUGCCUUGUGUUACUUAUUUACACAGUUAGCAGGCCUGGAAAUGAAUGGAUGGAAUUCUCGGGUGCCAA: 0.277
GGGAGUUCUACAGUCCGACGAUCCCAGGACAGGAGCCAUGGCAUGUGGCACAGACCAAUCAGGGACCAGAAAAGAAUGAUGUCCCUUUCCUUGCCAUGUCCUUGAGCCUGUCAGUAAUGAACUGGCUGCAAGGUGGAAUUCUCGGGUGCCAA: 3.74
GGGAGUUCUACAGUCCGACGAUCGAAGCUUUUAUUGUUACACUUCUUACCCUCUUUCAUAUCCAAAAUUGCCAAGUGCCUCUGCAGACUGGCCUUCCACCCUAGGCGCGGGCAGUUGGCAGAAGAAAGGCAGGUGGAAUUCUCGGGUGCCAA: 0.355
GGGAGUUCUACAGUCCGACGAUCCAGAAAAUCUGGAAACAGUUGCAGGUGUUGGGAGGAAGAUGAAAUCGAGCUGUCUUUUAACUUUUGUAUGUGUUUUAUCAGAAUUUGCUGGACUAUGCUGGCAAGGACUUUGGAAUUCUCGGGUGCCAA: 0.692

Sample 3 — method: protein binding microarray; molecule type: double-stranded DNA, one strand shown; matrix: in vitro; tested at: not given; reference: not given; reading: higher = stronger binding; measurement: E-score
Target: Histone acetyltransferase KAT6A, winged helix 2, GST fusion (KAT6A, Homo sapiens, UniProt Q92794, residues 85-181)
Notes: 8-mer, flanks averaged, mean of 2 arrays, mostly near background
Residues (chain): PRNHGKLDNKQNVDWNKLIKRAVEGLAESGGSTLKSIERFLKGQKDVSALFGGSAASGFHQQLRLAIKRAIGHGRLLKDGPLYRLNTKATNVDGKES
ACTCACAT: -0.0901
GTAAGGTA: -0.0199
CCTCATAA: -0.0785
ATCTCGCA: 0.169
GAATCACC: -0.0699
ACATGCAC: -0.108

Further values, each from its own experiment
PhoQ, residues 284 288 289 292 302 303 ASASEQ
fold induction (PhoP, residues 12 14 15 18 19 TPWLV (Escherichia coli, UniProt P23836); Sort-seq, refers to: YFP reporter; E. coli; PhoQ-PhoP variant library, added: 10 µM Mg2+; reference: high Mg2+ state, higher = stronger signaling): 0.759

Some of these lines once more (sample 1):
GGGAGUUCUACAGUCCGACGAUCUGGGAGGUGGAAUUUGUUUAUUUUUUUAGCUCAUUUCCAGGGGUGGGAAUUUUUUUUUAAUAUGUGUCAUGAAUAAAGUUGUUUUUGAAAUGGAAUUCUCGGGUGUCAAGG: 0.477
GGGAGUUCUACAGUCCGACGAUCACCAUGCAGGUGGGCAUCUUUGGGAAGUGGGGCAGGGGGGGGAUAGGGAGGGGGGUAACACUUUGGGAACAGGUGGUCCCAGGUCGUUUCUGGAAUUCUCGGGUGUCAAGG: 0.013
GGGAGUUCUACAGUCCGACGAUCUGGGAGGUGGAUUUUGUUUAUUUUUUUAGCUCAUUUCCAGGGGUGGGAAUUUUUUUUUAAUAUGUGUCAUUAAUAAAGUUGUUUUUGAAAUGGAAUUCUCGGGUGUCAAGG: -0.286
